{"data": "Results collected from several papers", "brat": "brat 756-1037 (Drosophila melanogaster, UniProt Q8MQJ9)", "polA D424A": "polA fragment D424A (Escherichia coli)", "CASP1/SUMO CARD": "CASP1/SUMO CARD, C-terminal TAMRA label", "B1": "protein (Thermotoga neapolitana, UniProt B9K712); chain MKMLYDLAKKRKTVRRFKKEKPPLEDLIYSLKVANEAPSGMNAQPWRFLIVEDEKLKGQIRRVCERSEKTFYENVRGRLKEWLDEKRFTWRKPFLKEAPYLLLVFSEKSAPYSRESVWLAVGYLLLALEEKGLGSVPYTPPDFREVEKLVNTPSELRLEVILPVGYPDDPKPKYPRNEVIVRYNTF", "P1": "CASP1 CARD domain (Homo sapiens); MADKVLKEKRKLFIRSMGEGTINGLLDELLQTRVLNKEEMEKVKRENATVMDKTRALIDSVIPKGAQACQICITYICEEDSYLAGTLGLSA", "P2": "IRGM; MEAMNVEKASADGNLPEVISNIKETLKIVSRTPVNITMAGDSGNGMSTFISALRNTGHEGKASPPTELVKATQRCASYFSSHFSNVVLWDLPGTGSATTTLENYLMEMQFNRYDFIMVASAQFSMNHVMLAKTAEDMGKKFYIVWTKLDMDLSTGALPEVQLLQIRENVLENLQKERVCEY", "note": "Each line is one published result; not all experiments were run side by side. Positions count from the first letter of the parent shown. ± gives the spread as reported.", "sequence of UniProt Q8MQJ9 (whole entry, looked up)": "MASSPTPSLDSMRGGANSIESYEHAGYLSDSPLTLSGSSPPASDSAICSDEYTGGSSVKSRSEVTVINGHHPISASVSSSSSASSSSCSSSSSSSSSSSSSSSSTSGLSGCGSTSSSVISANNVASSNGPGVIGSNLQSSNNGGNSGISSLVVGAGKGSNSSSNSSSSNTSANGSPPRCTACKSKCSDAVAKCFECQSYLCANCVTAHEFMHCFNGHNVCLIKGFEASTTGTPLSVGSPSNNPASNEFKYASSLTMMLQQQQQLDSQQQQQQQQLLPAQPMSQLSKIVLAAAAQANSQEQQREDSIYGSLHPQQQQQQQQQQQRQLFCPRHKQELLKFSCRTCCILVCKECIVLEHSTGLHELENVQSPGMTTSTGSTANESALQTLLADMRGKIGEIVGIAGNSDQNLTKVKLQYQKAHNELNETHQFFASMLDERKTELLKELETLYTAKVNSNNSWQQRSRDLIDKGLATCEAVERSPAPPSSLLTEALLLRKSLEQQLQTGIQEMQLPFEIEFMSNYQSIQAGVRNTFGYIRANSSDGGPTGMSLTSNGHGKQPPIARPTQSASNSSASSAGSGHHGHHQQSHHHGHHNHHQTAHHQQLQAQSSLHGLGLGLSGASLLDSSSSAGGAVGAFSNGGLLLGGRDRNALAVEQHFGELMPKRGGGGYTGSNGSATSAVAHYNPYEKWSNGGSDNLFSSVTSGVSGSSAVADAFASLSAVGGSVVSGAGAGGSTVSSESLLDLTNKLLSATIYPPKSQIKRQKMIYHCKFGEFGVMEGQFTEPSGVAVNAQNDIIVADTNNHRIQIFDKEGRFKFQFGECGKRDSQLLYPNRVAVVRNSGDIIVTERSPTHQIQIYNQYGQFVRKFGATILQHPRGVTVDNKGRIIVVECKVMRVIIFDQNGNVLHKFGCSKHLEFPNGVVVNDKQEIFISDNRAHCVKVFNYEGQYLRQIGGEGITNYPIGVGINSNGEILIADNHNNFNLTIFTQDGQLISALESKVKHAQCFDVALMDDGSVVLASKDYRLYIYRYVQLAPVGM", "sequence of UniProt Q94JM3 (whole entry, looked up)": "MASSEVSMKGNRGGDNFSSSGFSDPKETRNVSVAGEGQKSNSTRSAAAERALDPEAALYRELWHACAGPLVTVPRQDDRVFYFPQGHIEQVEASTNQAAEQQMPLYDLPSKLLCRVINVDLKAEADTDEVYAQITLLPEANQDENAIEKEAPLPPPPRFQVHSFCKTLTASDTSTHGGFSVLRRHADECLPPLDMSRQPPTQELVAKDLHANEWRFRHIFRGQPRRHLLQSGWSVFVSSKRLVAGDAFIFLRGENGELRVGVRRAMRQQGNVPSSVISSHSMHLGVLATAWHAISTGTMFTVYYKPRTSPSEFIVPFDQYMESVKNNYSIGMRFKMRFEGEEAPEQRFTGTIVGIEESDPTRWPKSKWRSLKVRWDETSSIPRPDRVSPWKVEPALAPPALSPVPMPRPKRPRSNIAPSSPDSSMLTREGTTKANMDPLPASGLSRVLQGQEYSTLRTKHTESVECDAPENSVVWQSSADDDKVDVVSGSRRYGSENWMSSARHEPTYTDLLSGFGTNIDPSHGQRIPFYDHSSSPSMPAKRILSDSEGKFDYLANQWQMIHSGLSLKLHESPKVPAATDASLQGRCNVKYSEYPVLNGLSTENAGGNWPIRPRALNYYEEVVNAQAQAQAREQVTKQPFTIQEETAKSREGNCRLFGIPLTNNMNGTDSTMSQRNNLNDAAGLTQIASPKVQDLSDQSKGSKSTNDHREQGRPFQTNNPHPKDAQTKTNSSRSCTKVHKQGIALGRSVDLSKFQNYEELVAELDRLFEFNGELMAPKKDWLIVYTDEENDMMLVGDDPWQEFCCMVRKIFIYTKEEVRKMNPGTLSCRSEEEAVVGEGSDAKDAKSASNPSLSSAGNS", "sequence of UniProt Q66GI4 (whole entry, unmodified, looked up)": "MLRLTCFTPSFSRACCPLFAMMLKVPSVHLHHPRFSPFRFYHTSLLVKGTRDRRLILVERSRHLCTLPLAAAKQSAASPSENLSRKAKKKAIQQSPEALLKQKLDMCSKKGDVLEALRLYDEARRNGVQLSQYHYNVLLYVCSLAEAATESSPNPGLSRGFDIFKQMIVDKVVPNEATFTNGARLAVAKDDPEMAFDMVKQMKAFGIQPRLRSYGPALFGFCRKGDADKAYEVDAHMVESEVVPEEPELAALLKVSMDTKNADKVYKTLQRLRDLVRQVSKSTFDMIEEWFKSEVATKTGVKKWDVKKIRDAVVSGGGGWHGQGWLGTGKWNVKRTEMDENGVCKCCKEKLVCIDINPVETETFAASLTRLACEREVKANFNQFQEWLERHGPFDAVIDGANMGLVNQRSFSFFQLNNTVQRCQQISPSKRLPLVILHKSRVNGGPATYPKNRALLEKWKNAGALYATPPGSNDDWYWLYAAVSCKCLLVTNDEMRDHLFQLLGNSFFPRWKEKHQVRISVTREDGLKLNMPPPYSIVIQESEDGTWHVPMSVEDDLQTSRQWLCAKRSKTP", "sequence of UniProt P21889 (whole entry, looked up)": "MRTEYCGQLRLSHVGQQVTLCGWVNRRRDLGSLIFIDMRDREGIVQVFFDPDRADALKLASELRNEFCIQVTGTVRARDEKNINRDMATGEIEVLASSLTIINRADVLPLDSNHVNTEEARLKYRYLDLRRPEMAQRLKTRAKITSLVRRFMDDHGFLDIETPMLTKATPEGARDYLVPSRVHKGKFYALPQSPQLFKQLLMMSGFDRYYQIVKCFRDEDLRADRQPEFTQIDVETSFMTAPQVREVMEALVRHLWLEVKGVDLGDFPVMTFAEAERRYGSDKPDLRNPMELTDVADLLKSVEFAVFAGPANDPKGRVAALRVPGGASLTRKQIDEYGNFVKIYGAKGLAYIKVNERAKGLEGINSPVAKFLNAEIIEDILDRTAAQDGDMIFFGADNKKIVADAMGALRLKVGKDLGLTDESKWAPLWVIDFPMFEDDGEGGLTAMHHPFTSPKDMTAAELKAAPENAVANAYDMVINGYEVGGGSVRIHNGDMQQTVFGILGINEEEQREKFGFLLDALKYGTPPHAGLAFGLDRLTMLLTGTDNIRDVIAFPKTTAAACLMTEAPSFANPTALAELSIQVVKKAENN"}
{"Substance": "UAUUUUGUUGUCGAAAAUGGGACAGGA (ssRNA)", "target or system": "brat", "test": "EMSA", "test system": "RNA", "quantity": "binding", "value": "binds"}
{"Substance": "GGAGCGGUAGUUCAGUCGGUUAGAAUACCUGCCUGUCACGCAGGGGGUCGCGGGUUCGAGUCCCGUCCGUUCCGCCA (tRNA (Escherichia coli); cloverleaf, unmodified)", "target or system": "aspS full length assumed (Escherichia coli, UniProt P21889)", "test": "ITC", "test system": "folded RNA", "quantity": "Kd", "value": "3.1 ± 0.1 µM"}
{"Substance": "B1 (protein)", "target or system": "N[C@@H](Cc1ccc(O)c(I)c1)C(=O)O", "test": "steady-state kinetics", "setting": "pH 7.4, 60 °C", "quantity": "kcat/Km", "value": "167000 ± 100000 M⁻¹ s⁻¹"}
{"Substance": "GTTCATTTTCCAAATGGAAAATGTTT (dsDNA)", "target or system": "Transcription factor bHLH93 (Gossypium hirsutum, UniProt A0ABM3A805)", "test": "EMSA", "test system": "double-stranded DNA, one strand shown", "quantity": "binding", "value": "binds"}
{"Substance": "AGTCTTTTTGGTCTCTGGTCGGTCGACAATCCGTGTG (dsDNA; 5-C6-amino-dT labels)", "target or system": "ARF2 1-859 (Arabidopsis thaliana, UniProt Q94JM3)", "test": "smFRET titration", "test system": "double-stranded DNA, one strand shown", "quantity": "K1/2", "value": "45.2 nM"}
{"Substance": "GACAUGGUCCGGUAGUUCAGUUGGUAAGAAUGCCUGCCUGUCACGCAGGAGGUCGCGGGUUCGAGUCCCGUCCGGACCG (tRNA (Bacillus subtilis); 5'-GMPS, tRNA fold)", "target or system": "PRORP1 77-572 (Arabidopsis thaliana, UniProt Q66GI4)", "test": "fluorescence anisotropy", "test system": "folded RNA", "setting": "NaCl 330 mM", "quantity": "Kd", "value": "0.3 ± 0.03 µM"}
{"Substance": "CCTCTTCCCTCACCTCTTCTTGACCTCATTCGTACCCATTGACCTTCGCAACCACCTGCGAAGGTCAATGGGTACGAATGAGGT (hairpin DNA; hairpin, 5' overhang, 3' ddT)", "target or system": "polA D424A", "test": "SPR", "setting": "with: dGTP 100 µM", "quantity": "Kd", "value": "0.016 ± 0.008 µM"}
{"Substance": "GACAUGGUCCGGUAGUUCAGUUGGUUAGAAUGCCUGCCUGUCACGCAGGAGGUCGCGGGUUCGAGUCCCGUCCGGACCG (tRNA (Bacillus subtilis); 5'-GMPS, tRNA fold)", "target or system": "PRORP1 77-572 Y133F (Arabidopsis thaliana, UniProt Q66GI4)", "test": "fluorescence anisotropy", "test system": "folded RNA", "setting": "NaCl 1 M", "scale": "baseline: wild-type target", "quantity": "binding free energy loss", "value": "1.8 kcal/mol"}
{"Substance": "P1 T49R V50R M51R", "target or system": "CASP1/SUMO CARD", "test": "fluorescence polarization", "setting": "40 min, read off a plot", "scale": "higher = more binding", "quantity": "signal", "value": "300 mP"}
{"Substance": "P2 S47N", "target or system": "TFEB", "test": "co-IP", "setting": "read off a plot, with: GTP/GDP", "scale": "baseline: unchanged protein, higher = more binding", "quantity": "relative binding", "value": 0.37}
{"Substance": "CCTCTTCCCTCACCTCTTCTTGACCTCATTCGTACCCATTGACCTTCGCAACCACCTGCGAAGGTCAATGGGTACGAATGAGGT (hairpin DNA; hairpin, 5' overhang, dG-C8-FABP 22, 3' ddT)", "target or system": "polA D424A", "test": "SPR", "setting": "with: dATP 100 µM", "quantity": "Kd", "value": "0.00044 ± 1e-05 µM"}
{"Substance": "P1 K64E", "target or system": "CASP1/SUMO CARD", "test": "fluorescence polarization", "setting": "40 min, read off a plot", "scale": "higher = more binding", "quantity": "signal", "value": "310 mP"}
{"Substance": "GGGAGACCUAGCCUCAUAUAAUCGUUGUCCAGAAUUGUAUAUAUUCGUAGCAUAAGUUUUCCAAACAUUAUUUUGGGGUCGAAAAUUGUACAUAAGCCAAUUAAGCCGCUA (ssRNA)", "target or system": "brat", "test": "EMSA", "test system": "RNA", "quantity": "binding", "value": "no binding"}
{"note": "Excerpt of the above:"}
{"Substance": "CCTCTTCCCTCACCTCTTCTTGACCTCATTCGTACCCATTGACCTTCGCAACCACCTGCGAAGGTCAATGGGTACGAATGAGGT (hairpin DNA; hairpin, 5' overhang, dG-C8-FABP 22, 3' ddT)", "target or system": "polA D424A", "test": "SPR", "setting": "with: dATP 100 µM", "quantity": "Kd", "value": "0.00044 ± 1e-05 µM"}
